Experimental data gathered from unrelated publications.
± gives the spread as reported.

CC(=O)N/C(N)=N/C(=N\S(=O)(=O)c1ccc(C(F)(F)F)cc1)N1C[C@H](c2ccccc2)C(c2ccc(Cl)cc2)=N1 — result for “binding affinity change”: “no effect” (Cannabinoid receptor 1 (CNR1, Homo sapiens, UniProt P21554, S123A); S123A mutant vs wild type; concentration not given; baseline: wild type).
COc1cccc(OC)c1OCCCn1cc(CCCNc2nc3c(c(=O)[nH]2)[n+](C)cn3C2OC(COP(=O)(O)OP(=O)([O-])OP(=O)(O)OCC3OC(n4cnc5c(=O)[nH]c(N)nc54)C(O)C3O)C(O)C2O)nn1 (stereo not drawn) has a capping efficiency of 67.5 ± 0.7% (DNA-directed RNA polymerase (Enterobacteria phage SP6, UniProt P06221); in vitro transcription, densitometry; short RNA).
With CCOCCNC(=O)N1CCC[C@H](c2n[nH]c(-c3ccccc3)n2)C1 the apparent Km was 75 µM (Aromatase (CYP19A1, Homo sapiens, UniProt P11511); enzyme activity, inhibitor, MFC to HFC conversion; 40 µM, together with: MFC substrate).
With CC[C@H](C)[C@H](NC(=O)[C@@H](NC(=O)[C@H](Cc1ccc(O)cc1)NC(=O)[C@H](C)NC(=O)[C@H](CC(N)=O)NC(=O)[C@H](CCC(=O)O)NC(=O)[C@H](Cc1ccccc1)NC(=O)[C@@H](NC(=O)[C@H](CO)NC(=O)[C@H](CCC(=O)O)NC(=O)[C@H](CCCCN)NC(=O)[C@H](Cc1ccccc1)NC(=O)[C@@H](N)CCCCN)C(C)C)C(C)C)C(=O)N[C@@H](Cc1ccc(O)cc1)C(=O)N[C@@H](CO)C(=O)N[C@@H](CO)C(=O)N[C@@H](CCSC)C(=O)N[C@@H](CC(C)C)C(=O)N[C@@H](Cc1ccc(O)cc1)C(=O)N[C@@H](CCCNC(=N)N)C(N)=O the kon was 23200 ± 1600 M⁻¹ s⁻¹ (Fibroblast growth factor 14 (Homo sapiens, UniProt Q92915)).
COc1cccc(C(=O)N[C@H]2[C@@H](O)[C@@H](CO)O[C@@H](S[C@@H]3O[C@H](CO)[C@H](O)[C@H](NC(=O)c4cccc(OC)c4)[C@H]3OS(=O)(=O)O)[C@@H]2O)c1 gave a –TΔS of 2.84 ± 0.12 kcal/mol (Galectin-3 (LGALS3, Homo sapiens, UniProt P17931); ITC; Kd fixed from FP).
CC(C)C[C@H](NC(=O)[C@H](Cc1ccc(O)cc1)NC(=O)[C@@H](CCCNC(=N)N)NC(=O)[C@@H](CO)NC(=O)[C@H](Cc1ccccc1)NC(=O)[C@H](CC1CCCCC1)NC(=O)[C@H](CC(=O)O)NC(=O)CCC(C(=O)O)N1CCCN2CCN(CCCN(CC(=O)O)CC2)CC1)C(=O)N[C@@H](Cc1c[nH]c2ccccc12)C(=O)N[C@@H](CO)C(=O)O (stereo partly drawn) gave a koff of 0.0108 s⁻¹ (Urokinase plasminogen activator surface receptor (Homo sapiens, UniProt Q03405); binding, SPR).
For Cc1cc(F)ccc1S(=O)(=O)N1CCC(C(=O)Nc2nc3ccccc3s2)CC1, the Emax was less than 1.2 fold (N-acyl-phosphatidylethanolamine-hydrolyzing phospholipase D (Napepld, Mus musculus, UniProt Q8BH82); enzyme activity, activator, fluorescence, PED-A1 substrate; baseline: vehicle).
For Cc1ccccc1-c1nc(Nc2nc3ccccc3o2)ncc1C#N, the maximal response was 1.9 ± 0.4% (Metabotropic glutamate receptor 5 (Grm5, Rattus norvegicus, UniProt P31424); calcium mobilization, negative allosteric modulator; together with: glutamate EC80; baseline: maximal glutamate response).
CC(=O)N[C@@H](CC(C)C)C(=O)N[C@@H](Cc1c[nH]cn1)C(=O)N[C@@H](CO)C(=O)N[C@H](C(=O)N[C@@H](C)C(N)=O)[C@@H](C)OP(=O)(O)O — result for binding: “no binding” (Plk2 polo-box domain, human; isothermal titration calorimetry; concentration not given).
NCc1ccc(NC(=O)c2ccc3ccccc3c2O)cc1 has an inhibition of greater than 70% (Plasminogen (PLG, Homo sapiens, UniProt P00747); enzyme activity, inhibitor; 10 µM).
CNc1ccccc1C(=O)O[C@H]1C[C@H](n2cnc3c(N)ncnc32)O[C@@H]1COP(=O)(O)OP(=O)(O)O: “pocket reverse rate constant” 0.94 ± 0.22 s⁻¹ (Unconventional myosin-Va (Gallus gallus, UniProt Q02440, D297C/G292C/I296C/S293C/V295G); stopped-flow FRET; 10 °C, together with: MgCl2 10 mM).
The KI(inact) of CC(C)[C@H]1CC[C@@]2(CO2)[C@H]2C(=O)CC(C(=O)O)=C[C@H]12 is reported as 150 ± 30 µM (Glyceraldehyde-3-phosphate dehydrogenase (GAPDH, Homo sapiens, UniProt P04406); covalent inhibitor).

Repeated from above:
CC(=O)N[C@@H](CC(C)C)C(=O)N[C@@H](Cc1c[nH]cn1)C(=O)N[C@@H](CO)C(=O)N[C@H](C(=O)N[C@@H](C)C(N)=O)[C@@H](C)OP(=O)(O)O — result for binding: “no binding” (Plk2 polo-box domain, human; isothermal titration calorimetry; concentration not given).
NCc1ccc(NC(=O)c2ccc3ccccc3c2O)cc1 has an inhibition of greater than 70% (Plasminogen (PLG, Homo sapiens, UniProt P00747); enzyme activity, inhibitor; 10 µM).
